# Assay results of several laboratories.
# Parts stem from different laboratories: compare values within a part only.

# Sample 1
# Target: Interferon regulatory factor 7, full length, phosphomimetic (IRF7, Homo sapiens, UniProt Q92985, residues 1-503, S101K/S471D/S472D/S475D/S476D/S477D/S483D/S484D/S487D)
# Sequence of UniProt Q92985 (whole entry, unmodified, looked up): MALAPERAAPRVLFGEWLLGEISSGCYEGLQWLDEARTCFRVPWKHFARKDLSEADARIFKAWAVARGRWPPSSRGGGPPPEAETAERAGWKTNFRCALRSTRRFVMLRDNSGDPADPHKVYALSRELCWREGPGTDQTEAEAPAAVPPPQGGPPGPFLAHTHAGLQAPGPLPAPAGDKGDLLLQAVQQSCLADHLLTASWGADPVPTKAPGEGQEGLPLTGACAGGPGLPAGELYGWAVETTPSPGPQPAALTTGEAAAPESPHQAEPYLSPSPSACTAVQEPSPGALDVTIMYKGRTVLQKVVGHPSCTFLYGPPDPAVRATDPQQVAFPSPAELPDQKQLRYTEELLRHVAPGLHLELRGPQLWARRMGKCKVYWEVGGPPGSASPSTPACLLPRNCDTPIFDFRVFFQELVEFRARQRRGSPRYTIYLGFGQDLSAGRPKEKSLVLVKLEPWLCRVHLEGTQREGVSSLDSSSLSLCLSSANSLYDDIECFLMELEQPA
# Technique: protein-binding microarray
# Form: double-stranded DNA, one strand shown
# Matrix: in vitro
# Tested at: 250 nM
# Setting: 60-bp whole probe
# Together with: salmon DNA 0.4 mg/ml
# Baseline: random background probes
# Reading: higher = stronger binding
# Constant ends, left off below: GCCTAGCAC … GTCTTGATTCGCTTGACGCTGCTG
Oligonucleotide,log fluorescence [z-score]
GACGATATCAGTATCAAGACGTGCTAG,-0.232
CCACTTTCAGTTCTCCCTTTGTGCTAG,3.34
GACGGTATCGGTATCGGGATGTGCTAG,1.45
TTCGGACTGGACTATCGGTTAGTGCTA,-0.512
ACACATCTCACTCTAATCTCGTGCTAG,0.513

# Sample 2
# Target: Histone acetyltransferase KAT6A, winged helix 2, GST fusion (KAT6A, Homo sapiens, UniProt Q92794, residues 85-181)
# Technique: protein binding microarray
# Form: double-stranded DNA, one strand shown
# Matrix: in vitro
# Tested at: not given
# Setting: 8-mer, flanks averaged, mean of 2 arrays, mostly near background
# Baseline: not given
# Reading: higher = stronger binding
# Construct (chain): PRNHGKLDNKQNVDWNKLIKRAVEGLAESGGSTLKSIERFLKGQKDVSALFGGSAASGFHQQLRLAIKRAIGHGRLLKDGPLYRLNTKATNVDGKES
Oligonucleotide,E-score
CACAGGTC,-0.151
AGCAACAG,0.0578
GCGATCAA,0.0216
CTCCGCGA,0.12
CGTGTTCC,0.0718
GAATAGAA,0.0424
CGATAATC,-0.218
CCCGACGG,0.127
AGCGACAA,0.0571
GGCCTCCC,0.108

# Sample 3
# Target: Sal-like protein 4, full length isoform B (SALL4, Homo sapiens, UniProt Q9UJQ4-2, residues 1-616)
# Technique: universal PBM
# Form: double-stranded DNA, one strand shown
# Matrix: in vitro
# Tested at: not given
# Setting: 8-mer, flanks averaged, mean of replicates
# Reading: higher = stronger binding
# Construct (chain): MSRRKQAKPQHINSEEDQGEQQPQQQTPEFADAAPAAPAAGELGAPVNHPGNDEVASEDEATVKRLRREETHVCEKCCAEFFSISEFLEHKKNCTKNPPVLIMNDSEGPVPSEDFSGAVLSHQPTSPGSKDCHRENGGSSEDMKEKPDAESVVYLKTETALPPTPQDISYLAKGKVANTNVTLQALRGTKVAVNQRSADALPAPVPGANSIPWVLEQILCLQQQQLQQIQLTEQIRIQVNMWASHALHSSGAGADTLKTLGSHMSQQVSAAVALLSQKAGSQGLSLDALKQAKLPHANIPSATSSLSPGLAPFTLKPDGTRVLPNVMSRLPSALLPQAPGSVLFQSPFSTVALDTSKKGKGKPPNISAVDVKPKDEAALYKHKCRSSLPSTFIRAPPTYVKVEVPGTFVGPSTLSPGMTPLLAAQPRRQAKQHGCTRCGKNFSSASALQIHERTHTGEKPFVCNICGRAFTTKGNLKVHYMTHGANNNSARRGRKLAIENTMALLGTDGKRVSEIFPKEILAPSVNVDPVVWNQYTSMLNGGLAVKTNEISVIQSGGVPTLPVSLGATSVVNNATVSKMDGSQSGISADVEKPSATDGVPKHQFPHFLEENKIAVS
Oligonucleotide,E-score
AGATGGAA,0.0608
ATGTGGGC,-0.0929
AATTCAAG,0.179
AAGTTGGT,0.0907
AAATGAGT,0.255

# Sample 4
# Target: Centromere-binding protein 1, full length, N-terminal tag (CBF1, Saccharomyces cerevisiae, UniProt P17106, residues 1-351)
# Sequence of UniProt P17106 (whole entry, looked up): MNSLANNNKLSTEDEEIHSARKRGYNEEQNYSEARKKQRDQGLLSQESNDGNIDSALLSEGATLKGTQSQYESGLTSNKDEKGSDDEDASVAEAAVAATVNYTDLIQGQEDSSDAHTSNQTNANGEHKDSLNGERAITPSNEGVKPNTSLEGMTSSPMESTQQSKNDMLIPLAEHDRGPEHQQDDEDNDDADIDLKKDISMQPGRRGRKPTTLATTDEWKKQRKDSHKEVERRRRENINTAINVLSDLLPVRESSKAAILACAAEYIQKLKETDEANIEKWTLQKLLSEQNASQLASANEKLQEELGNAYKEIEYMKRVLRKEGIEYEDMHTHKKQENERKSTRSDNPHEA
# Technique: protein-binding microarray
# Form: double-stranded DNA, one strand shown
# Matrix: in vitro
# Tested at: 0.8 µM
# Setting: whole 60-bp probe, no competitor
# Reading: higher = stronger binding
Oligonucleotide,fluorescence intensity [a.u.]
GAAGCCCATTTCTGGGACATCAGCACTTGCGGTTAGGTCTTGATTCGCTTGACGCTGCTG,545
GAATAGTATGACTACTACGTGATGGTCGATAGTTAGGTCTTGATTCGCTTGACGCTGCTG,586
GAACAAACAAACCACGTGATGGTCTACACGTTGTAGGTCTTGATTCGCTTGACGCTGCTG,12300
CTAAGAGTTGTACATCAGGTAAGAATGTTATTATTCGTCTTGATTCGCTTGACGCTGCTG,503
CTATTCTACCCCTTCAGCGTGAAAAATCACCATTTCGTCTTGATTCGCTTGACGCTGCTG,530
TGTACGAAGCTATGTGTCACCTCTATAGTAGTTAGGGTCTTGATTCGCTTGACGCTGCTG,508
CTATCACAGTTCCGGAACCTAAGCCTAACGAAATTCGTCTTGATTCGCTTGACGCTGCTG,512
GAATGACGAATCAACGTGATAATTGTGTAACCGTAGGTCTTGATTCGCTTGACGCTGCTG,1010
CTAGGTGCATTACATCATGAAAGAGTATTATTATTCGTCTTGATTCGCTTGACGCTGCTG,526
CTATTAATAATCTACCACGTTTCAAATTCAATATTCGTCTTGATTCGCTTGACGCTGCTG,648
CTAGCAGTCTAAAAACACACGTGTATGTTTTTTTTCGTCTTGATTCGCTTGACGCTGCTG,5640
CCTAACTACTATACACATGACACATAGCTTCGTACAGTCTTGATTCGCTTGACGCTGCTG,1170

# Single results of other studies
Substance,target,assay,system,setting,how to read,measurement,result
"PhoQ, residues 284 288 289 292 302 303 TLASMF","PhoP, residues 12 14 15 18 19 NHTVL (Escherichia coli, UniProt P23836)","Sort-seq, measured: YFP reporter",E. coli,"PhoQ-PhoP variant library, together with: 10 µM Mg2+","baseline: high Mg2+ state, higher = stronger signaling",fold induction,2.11

# Excerpt of the above (sample 4):
Oligonucleotide,fluorescence intensity [a.u.]
CTATCACAGTTCCGGAACCTAAGCCTAACGAAATTCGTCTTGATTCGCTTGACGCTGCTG,512
GAATGACGAATCAACGTGATAATTGTGTAACCGTAGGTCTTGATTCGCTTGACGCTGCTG,1010
CTAGGTGCATTACATCATGAAAGAGTATTATTATTCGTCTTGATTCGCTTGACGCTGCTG,526
CTATTAATAATCTACCACGTTTCAAATTCAATATTCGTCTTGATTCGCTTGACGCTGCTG,648
CTAGCAGTCTAAAAACACACGTGTATGTTTTTTTTCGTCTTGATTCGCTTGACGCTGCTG,5640
